# Values quoted from earlier work that unrelated publications cite.
# Compare with care: the assays were run in different laboratories. ± marks the error that the study gave.
# Chain of UniProt Q9GZZ6 (whole entry, looked up): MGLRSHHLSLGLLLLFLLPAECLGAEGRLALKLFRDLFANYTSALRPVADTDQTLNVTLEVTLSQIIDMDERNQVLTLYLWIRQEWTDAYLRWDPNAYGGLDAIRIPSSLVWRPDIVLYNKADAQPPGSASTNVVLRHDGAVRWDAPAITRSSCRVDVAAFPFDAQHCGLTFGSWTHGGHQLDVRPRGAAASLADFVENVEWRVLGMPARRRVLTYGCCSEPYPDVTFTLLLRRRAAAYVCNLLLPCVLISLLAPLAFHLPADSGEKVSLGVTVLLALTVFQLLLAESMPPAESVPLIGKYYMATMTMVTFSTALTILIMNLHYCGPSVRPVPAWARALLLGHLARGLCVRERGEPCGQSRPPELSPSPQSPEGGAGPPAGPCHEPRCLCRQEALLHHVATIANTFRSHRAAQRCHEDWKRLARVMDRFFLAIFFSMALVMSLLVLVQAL
# Chain of UniProt Q9UGM1 (whole entry, looked up): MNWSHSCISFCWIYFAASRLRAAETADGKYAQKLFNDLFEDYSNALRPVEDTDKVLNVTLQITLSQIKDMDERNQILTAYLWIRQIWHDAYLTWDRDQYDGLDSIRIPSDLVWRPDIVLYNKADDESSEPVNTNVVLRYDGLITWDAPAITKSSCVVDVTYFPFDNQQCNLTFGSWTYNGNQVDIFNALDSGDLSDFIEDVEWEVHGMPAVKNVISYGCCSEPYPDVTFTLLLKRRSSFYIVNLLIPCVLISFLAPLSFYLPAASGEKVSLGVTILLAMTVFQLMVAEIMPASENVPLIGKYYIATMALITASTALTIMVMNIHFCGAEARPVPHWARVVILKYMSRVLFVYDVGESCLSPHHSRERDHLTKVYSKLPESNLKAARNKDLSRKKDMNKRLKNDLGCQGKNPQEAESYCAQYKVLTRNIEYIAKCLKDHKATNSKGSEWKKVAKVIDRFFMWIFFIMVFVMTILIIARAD
# Chain of UniProt Q91XE4 (whole entry, looked up): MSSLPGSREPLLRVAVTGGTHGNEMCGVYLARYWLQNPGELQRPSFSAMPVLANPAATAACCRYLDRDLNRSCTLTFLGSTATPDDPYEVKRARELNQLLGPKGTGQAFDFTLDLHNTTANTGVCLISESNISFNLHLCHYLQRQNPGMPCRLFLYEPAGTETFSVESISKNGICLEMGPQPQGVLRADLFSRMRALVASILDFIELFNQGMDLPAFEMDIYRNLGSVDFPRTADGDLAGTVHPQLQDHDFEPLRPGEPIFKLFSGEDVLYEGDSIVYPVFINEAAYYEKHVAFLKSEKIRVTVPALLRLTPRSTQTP
SMILES,target or system,test,system,conditions,measurement,result
COC(=O)[C@@H]1C[C@H](OC(C)=O)C(=O)[C@H]2[C@@]1(C)CC[C@H]1C(=O)O[C@H](c3ccoc3)C[C@]21C,kappa opioid receptor Q213A,,,,Ki,40 ± 12 nM
N#C[Se]CCOc1ccc(Oc2ccccc2)cc1,Trypanosoma cruzi,parasite growth,intracellular amastigotes,,EC50,109 nM
COc1ccc2c3c1O[C@H]1[C@@H](O)C=C[C@H]4[C@@H](C2)N(C)CC[C@@]341,,"analgesia, Haffner tail-clip test",mouse,subcutaneous,ED50,25 mg/kg
O=S(=O)([O-])C(F)(F)C(F)(F)C(F)(F)C(F)(F)C(F)(F)C(F)(F)C(F)(F)C(F)(F)F.[K+],CYP1A2,inhibitor,,Tox21 screening,IC50,inactive
CC(=O)N[C@@H](CSC(Cl)=CCl)C(=O)O,"N-acyl-aromatic-L-amino acid amidohydrolase (carboxylate-forming) (Acy3, Mus musculus, UniProt Q91XE4)",substrate,,without Co2+,Km,450 µM
FC(F)OC(F)(F)C(F)Cl (centres unmarked),CYP3A4,inhibitor,,Tox21 screening,IC50,inactive
CC1(C)NC(=O)N(c2ccc(F)c(C(F)(F)F)c2)C1=O,Schistosoma mansoni,,"adult worms, mouse","oral, 25 mg/kg single dose",worm burden reduction,83%
CC[C@@H]1C=CC(=O)O[C@@H]1C[C@@H](O)[C@H](C)[C@H](OC)[C@@H](C)C[C@@H]1O[C@H]1C (relative stereo),A2780 ovarian cancer,cell growth,,,MIC,0.54 µM
CCCC(C(=O)c1ccc2c(c1)OCO2)N1CCCC1 (centres unmarked),,,"mouse, serotonin","intragastric, 20 mg/kg",serotonin level,no effect
CC1(C)NC(=O)N(c2ccc(F)c(C(F)(F)F)c2)C1=O,Schistosoma mansoni,,"juvenile, infected mice","oral, single dose",ED50,140 mg/kg
CN1CC[C@]23c4c5ccc(O)c4O[C@H]2[C@@H](O)C=C[C@@]3(O)[C@H]1C5,,antinociception,mouse,subcutaneous,ED50,2.9 mg/kg
O=c1oc2cc(O)ccc2c2oc3cc(O)ccc3c12,,DPPH radical scavenging,,,IC50,25.9 µg/mL
CC1(C)S[C@@H]2[C@H](NC(=O)[C@H](N)c3ccccc3)C(=O)N2[C@H]1C(=O)O,Mycobacterium tuberculosis,,H37Ra,,MIC,128 µg/mL
N/C(CC(O)c1cc2c(F)cc(F)cc2c2cc(C(F)(F)F)ccc12)=N\c1ccc(F)cc1 (centres unmarked),Plasmodium falciparum,cell growth,Dd2 PfATP4 G358S mutant,,IC50,11 nM
Cn1cc2cc(C(F)(F)c3nnc4ccc(-c5cnn(C6CC6)c5)nn34)c(F)cc2n1,,,"human, MET-altered NSCLC patients","dose not given, phase I",disease control rate,94.4%
CC(C)Nc1nc2cc(Cl)c(Cl)cc2n1[C@H]1O[C@@H](CO)[C@H](O)[C@@H]1O,human cytomegalovirus,viral replication,UL97 F342Y mutant,,EC50,510 nM
CCCCCOc1ccc(-c2ccc(-c3ccc(C(=O)N[C@H]4C[C@@H](O)[C@@H](O)NC(=O)[C@@H]5[C@@H](O)[C@@H](C)CN5C(=O)[C@H]([C@@H](C)O)NC(=O)[C@H]([C@H](O)[C@@H](O)c5ccc(O)cc5)NC(=O)[C@@H]5C[C@@H](O)CN5C(=O)[C@H]([C@@H](C)O)NC4=O)cc3)cc2)cc1,,,mild hepatic impairment patients,50 mg single dose,volume of distribution,39.4 ± 9.5 L
COc1cccc2c3c(=O)n(C4C5(C)CCC(C5)C4(C)C)ccc3n(CCN3CCOCC3)c12 (centres unmarked),CB2 receptor,binding,,,Ki,1 nM
CC(=O)O[C@H]1C[C@@]2(C)[C@@H](C[C@@H](O)[C@H]3[C@@]4(C)CC[C@@H](O)[C@@H](C)[C@@H]4CC[C@@]32C)/C1=C(\CCC=C(C)C)C(=O)O,Mycobacterium tuberculosis,,H37Ra,,MIC,3 µg/mL
CN1CCc2[nH]c3ccccc3c2CC1.O=C(O)/C=C/C(=O)O,"Neuronal acetylcholine receptor; alpha9/alpha10 (Homo sapiens, UniProt Q9GZZ6+Q9UGM1)",inhibitor,,together with: 6 µM acetylcholine,Hill coefficient,1.9 ± 0.2
NNC(=O)c1ccncc1,Mycobacterium tuberculosis,,H37Ra,,MIC,0.05 µg/mL
CC(=O)[C@H]1CC[C@H]2[C@@H]3CC[C@H]4C[C@@H](O)CC[C@]4(C)[C@H]3CC[C@]12C,,protection in 6 Hz seizure test,mouse NIH Swiss male,"intraperitoneal, 15 min pretreatment",ED50,> 100 mg/kg
O=C(/C=C/c1ccc(O)c(O)c1)OCCc1ccccc1,,ABTS radical scavenging,,,IC50,9.8 µg/mL
CN1CC[C@]23c4c5ccc(O)c4O[C@H]2[C@@H](O)C=C[C@@]3(O)[C@H]1C5,,"analgesia, Haffner tail-clip test",mouse,subcutaneous,ED50,13 mg/kg
COc1ccc2c(c1O)-c1c(O)c(OC)cc3c1[C@H](C2)[N+](C)(C)CC3,,DPPH radical scavenging,,,IC50,15.2 µg/mL
O=c1[nH]nc(-c2ccc(-c3nnn[nH]3)cc2)cc1O,influenza endonuclease,"enzyme activity, inhibitor",,,IC50,3000 nM

# A few entries again:
SMILES,target or system,test,system,conditions,measurement,result
N/C(CC(O)c1cc2c(F)cc(F)cc2c2cc(C(F)(F)F)ccc12)=N\c1ccc(F)cc1 (centres unmarked),Plasmodium falciparum,cell growth,Dd2 PfATP4 G358S mutant,,IC50,11 nM
CN1CC[C@]23c4c5ccc(O)c4O[C@H]2[C@@H](O)C=C[C@@]3(O)[C@H]1C5,,antinociception,mouse,subcutaneous,ED50,2.9 mg/kg
CC(C)Nc1nc2cc(Cl)c(Cl)cc2n1[C@H]1O[C@@H](CO)[C@H](O)[C@@H]1O,human cytomegalovirus,viral replication,UL97 F342Y mutant,,EC50,510 nM
